Experimental data from different studies.
Protocols differ between the studies behind these lines. Numbers after ± are the reported error.
CYP1A2: Cytochrome P450 1A2 (CYP1A2, Homo sapiens, UniProt P05177)
Sequence of UniProt P05177 (whole entry, looked up): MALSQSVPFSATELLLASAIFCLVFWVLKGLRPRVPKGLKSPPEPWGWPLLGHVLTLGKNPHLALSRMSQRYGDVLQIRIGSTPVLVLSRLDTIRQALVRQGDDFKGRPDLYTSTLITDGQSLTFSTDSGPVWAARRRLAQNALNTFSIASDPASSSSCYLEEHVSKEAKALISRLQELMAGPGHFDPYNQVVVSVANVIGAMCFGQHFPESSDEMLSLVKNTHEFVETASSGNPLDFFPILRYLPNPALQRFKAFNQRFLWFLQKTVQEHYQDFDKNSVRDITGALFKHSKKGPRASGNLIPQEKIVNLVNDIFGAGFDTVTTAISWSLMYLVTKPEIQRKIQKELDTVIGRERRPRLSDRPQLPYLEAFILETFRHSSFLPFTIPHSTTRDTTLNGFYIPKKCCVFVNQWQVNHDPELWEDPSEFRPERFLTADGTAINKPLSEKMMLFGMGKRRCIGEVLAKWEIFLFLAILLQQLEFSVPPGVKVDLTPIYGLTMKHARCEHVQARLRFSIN
CYP2B6: Cytochrome P450 2B6 (CYP2B6, Homo sapiens, UniProt P20813)
Sequence of UniProt P20813 (whole entry, looked up): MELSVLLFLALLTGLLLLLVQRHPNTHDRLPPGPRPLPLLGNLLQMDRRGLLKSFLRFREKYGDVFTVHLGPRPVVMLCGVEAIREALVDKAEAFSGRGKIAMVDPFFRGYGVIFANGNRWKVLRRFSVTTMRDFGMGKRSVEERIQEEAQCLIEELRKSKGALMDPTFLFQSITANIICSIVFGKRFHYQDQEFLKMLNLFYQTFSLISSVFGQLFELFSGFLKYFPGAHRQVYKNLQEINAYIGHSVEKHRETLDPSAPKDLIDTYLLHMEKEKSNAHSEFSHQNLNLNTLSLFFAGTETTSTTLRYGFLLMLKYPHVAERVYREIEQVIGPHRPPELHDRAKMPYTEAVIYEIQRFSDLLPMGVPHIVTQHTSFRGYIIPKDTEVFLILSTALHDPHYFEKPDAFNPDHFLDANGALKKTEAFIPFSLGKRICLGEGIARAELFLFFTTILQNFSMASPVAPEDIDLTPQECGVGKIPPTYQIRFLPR
Abcb1a N83Q/N87Q/N90Q: ATP-dependent translocase ABCB1 (Abcb1a, Mus musculus, UniProt P21447, N83Q/N87Q/N90Q)
Sequence of UniProt P21447 (whole entry, unmodified, looked up): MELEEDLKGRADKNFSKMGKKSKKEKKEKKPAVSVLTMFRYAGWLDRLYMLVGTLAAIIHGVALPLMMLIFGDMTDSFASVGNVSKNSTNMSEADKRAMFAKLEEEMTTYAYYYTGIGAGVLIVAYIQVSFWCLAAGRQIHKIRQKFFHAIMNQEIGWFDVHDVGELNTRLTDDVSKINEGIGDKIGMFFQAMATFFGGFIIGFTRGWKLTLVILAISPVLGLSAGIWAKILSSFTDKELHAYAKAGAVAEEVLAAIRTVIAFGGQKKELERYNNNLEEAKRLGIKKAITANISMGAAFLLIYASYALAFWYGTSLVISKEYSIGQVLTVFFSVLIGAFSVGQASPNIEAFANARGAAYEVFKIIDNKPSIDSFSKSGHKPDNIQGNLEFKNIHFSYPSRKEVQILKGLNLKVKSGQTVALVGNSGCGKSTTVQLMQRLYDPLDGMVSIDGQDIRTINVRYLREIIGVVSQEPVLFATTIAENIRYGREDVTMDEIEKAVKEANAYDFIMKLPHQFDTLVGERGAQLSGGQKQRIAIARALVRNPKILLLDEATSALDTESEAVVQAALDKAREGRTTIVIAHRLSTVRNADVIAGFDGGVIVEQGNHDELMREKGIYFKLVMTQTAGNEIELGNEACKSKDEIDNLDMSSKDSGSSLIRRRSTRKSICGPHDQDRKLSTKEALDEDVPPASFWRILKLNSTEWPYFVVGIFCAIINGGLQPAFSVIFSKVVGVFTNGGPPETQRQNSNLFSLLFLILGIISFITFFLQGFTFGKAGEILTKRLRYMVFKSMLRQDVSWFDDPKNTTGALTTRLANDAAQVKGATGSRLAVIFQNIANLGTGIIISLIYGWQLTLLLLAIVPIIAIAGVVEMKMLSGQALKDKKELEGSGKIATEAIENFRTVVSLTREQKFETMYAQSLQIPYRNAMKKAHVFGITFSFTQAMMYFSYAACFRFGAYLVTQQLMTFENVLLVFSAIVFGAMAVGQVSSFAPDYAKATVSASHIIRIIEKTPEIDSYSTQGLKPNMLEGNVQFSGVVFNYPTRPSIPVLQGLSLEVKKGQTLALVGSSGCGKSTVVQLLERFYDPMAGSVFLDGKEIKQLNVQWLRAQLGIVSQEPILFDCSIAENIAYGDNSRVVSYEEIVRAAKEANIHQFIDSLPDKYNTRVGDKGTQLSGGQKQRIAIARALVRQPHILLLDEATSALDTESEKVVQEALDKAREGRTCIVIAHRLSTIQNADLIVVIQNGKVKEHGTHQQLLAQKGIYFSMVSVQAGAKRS
CYP1A1: Cytochrome P450 1A1 (CYP1A1, Homo sapiens, UniProt P04798)
Sequence of UniProt P04798 (whole entry, looked up): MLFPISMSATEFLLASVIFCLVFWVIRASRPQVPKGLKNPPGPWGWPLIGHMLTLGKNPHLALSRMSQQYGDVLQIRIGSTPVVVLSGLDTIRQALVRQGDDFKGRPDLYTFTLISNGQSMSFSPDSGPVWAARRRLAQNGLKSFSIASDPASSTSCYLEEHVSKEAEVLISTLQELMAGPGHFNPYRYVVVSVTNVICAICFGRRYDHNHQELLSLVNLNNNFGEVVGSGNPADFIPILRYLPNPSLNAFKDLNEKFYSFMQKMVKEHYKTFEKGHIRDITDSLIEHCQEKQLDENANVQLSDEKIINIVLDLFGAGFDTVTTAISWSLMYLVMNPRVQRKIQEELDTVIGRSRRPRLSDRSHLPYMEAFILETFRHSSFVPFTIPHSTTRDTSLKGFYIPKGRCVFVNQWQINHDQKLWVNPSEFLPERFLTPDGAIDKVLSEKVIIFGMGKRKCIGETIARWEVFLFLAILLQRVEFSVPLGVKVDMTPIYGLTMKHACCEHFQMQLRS
KCNH2: Voltage-gated inwardly rectifying potassium channel KCNH2 (KCNH2, Homo sapiens, UniProt Q12809)
Sequence of UniProt Q12809 (whole entry, looked up): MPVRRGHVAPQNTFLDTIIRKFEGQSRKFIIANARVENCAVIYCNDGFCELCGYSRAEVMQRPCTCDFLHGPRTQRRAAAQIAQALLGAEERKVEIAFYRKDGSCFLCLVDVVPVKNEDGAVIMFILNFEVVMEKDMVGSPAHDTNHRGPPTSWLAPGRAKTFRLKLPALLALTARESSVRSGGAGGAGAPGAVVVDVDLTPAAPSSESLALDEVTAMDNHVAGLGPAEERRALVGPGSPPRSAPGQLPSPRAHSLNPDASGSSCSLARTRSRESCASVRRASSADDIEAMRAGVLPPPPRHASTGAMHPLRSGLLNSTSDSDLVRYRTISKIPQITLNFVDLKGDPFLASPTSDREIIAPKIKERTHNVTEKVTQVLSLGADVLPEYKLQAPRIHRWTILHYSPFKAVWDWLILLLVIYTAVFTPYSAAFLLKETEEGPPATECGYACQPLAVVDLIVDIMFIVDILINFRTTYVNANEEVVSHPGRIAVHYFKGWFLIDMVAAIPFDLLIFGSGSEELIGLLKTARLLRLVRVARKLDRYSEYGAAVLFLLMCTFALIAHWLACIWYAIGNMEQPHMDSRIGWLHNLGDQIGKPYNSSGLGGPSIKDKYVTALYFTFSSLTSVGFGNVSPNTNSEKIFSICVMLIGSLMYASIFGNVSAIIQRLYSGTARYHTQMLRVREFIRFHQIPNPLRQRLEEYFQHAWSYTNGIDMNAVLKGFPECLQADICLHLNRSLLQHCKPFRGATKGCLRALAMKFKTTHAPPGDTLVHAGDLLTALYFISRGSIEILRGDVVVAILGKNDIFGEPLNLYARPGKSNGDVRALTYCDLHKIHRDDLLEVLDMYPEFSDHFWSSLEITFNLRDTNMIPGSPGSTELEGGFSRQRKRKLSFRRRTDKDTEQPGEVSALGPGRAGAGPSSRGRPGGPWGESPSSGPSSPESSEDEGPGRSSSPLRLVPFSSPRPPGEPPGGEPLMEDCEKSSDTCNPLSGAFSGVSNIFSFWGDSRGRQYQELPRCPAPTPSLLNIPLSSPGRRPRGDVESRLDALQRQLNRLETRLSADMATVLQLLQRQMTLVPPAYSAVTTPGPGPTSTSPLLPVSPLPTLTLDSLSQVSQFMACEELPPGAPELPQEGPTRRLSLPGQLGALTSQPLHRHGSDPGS
CYP2E1: Cytochrome P450 2E1 (CYP2E1, Homo sapiens, UniProt P05181)
CYP1B1: Cytochrome P450 1B1 (CYP1B1, Homo sapiens, UniProt Q16678)
Ahr: Aryl hydrocarbon receptor (Ahr, Mus musculus, UniProt P30561)
Sequence of UniProt P30561 (whole entry, looked up): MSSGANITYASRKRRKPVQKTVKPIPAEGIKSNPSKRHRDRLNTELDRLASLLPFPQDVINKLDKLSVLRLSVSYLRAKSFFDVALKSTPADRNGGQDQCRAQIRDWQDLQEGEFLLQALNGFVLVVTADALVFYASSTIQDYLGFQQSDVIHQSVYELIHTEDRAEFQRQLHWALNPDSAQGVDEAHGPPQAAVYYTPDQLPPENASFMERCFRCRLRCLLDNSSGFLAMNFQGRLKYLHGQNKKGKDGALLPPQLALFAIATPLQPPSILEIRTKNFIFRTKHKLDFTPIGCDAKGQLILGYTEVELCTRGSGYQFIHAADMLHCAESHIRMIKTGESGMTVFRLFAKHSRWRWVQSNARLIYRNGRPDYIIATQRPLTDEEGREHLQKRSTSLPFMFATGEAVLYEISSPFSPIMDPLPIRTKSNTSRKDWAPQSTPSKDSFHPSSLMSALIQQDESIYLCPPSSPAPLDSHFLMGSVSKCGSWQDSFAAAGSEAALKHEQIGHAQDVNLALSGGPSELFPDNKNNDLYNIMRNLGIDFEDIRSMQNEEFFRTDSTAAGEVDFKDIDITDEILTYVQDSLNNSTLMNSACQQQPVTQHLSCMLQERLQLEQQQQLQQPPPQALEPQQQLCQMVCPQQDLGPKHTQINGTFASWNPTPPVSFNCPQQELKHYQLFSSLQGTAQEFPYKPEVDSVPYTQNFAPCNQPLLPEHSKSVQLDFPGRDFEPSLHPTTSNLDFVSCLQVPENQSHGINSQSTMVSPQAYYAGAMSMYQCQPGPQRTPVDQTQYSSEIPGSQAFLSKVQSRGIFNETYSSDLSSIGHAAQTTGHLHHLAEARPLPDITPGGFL

C#CCOc1cccc(-c2cc(=O)c3ccccc3o2)c1  IC50 (CYP1A2; enzyme activity, inhibitor): 0.67 µM
N#Cc1ccc(C(O)c2ccc(C#N)cc2)cc1  IC50 (CYP2B6; enzyme activity, inhibitor; human liver microsomes; together with: efavirenz 10 µM): 33.1 µM
Clc1ccc(-c2cc(Cl)c(Cl)cc2Cl)cc1Cl  IC50 (Abcb1a N83Q/N87Q/N90Q; ATPase activity, inhibitor; together with: 100 µM verapamil): 15.9 µM
O=c1cc(-c2cccc(O)c2)oc2ccccc12  IC50 (CYP1A1; enzyme activity, inhibitor, fluorescence): 5 µM
CCCCCCCC[N+](CCCCCCCC)(CCCCCCCC)CCCCCCCC  IC50 (KCNH2; ion current, inhibitor, thallium influx): 0.24 µM
O=C(O)C(F)(OC(F)(F)C(F)(F)C(F)(F)F)C(F)(F)F (stereo not shown)  IC50 (CYP2E1; enzyme activity, inhibitor; Supersomes, together with: 7-MFC substrate): > 100 µM
C[C@H]1NC(C)(C)CO[C@]1(O)c1cccc(Cl)c1  IC50 (Cytochrome P450 2D6 (CYP2D6, Homo sapiens, UniProt P10635); enzyme activity, inhibitor): 5 µM
c1ccc2cc3c(ccc4ccccc43)cc2c1  IC50 (CYP1B1): < 0.05 µM
CN(C)c1ccc(C(=C2C=CC(=[N+](C)C)C=C2)c2ccccc2)cc1  IC50 (KCNH2; thallium influx, inhibitor, primary qHTS; hERG-transduced cells; two runs): 7.1 µM
Clc1ccc(-c2cc(Cl)c(Cl)cc2Cl)cc1Cl  IC50 (Ahr; binding, competitor; in vitro expressed receptor, together with: [3H]TCDD): 6.31 µM
C#CCOc1cccc2oc(-c3ccccc3)cc(=O)c12  IC50 (CYP1A2; enzyme activity, inhibitor): 0.38 µM
Clc1cc(Cl)c(Cl)c(-c2c(Cl)cccc2Cl)c1Cl  IC50 (Abcb1a N83Q/N87Q/N90Q; ATPase activity, inhibitor; together with: 100 µM verapamil): 22 µM
O=c1cc(-c2ccc(O)cc2)oc2ccccc12  IC50 (CYP1A1; enzyme activity, inhibitor, fluorescence): 18.3 µM
Clc1cc(Cl)c(-c2cc(Cl)c(Cl)c(Cl)c2)c(Cl)c1  IC50 (Abcb1a N83Q/N87Q/N90Q; ATPase activity, inhibitor; together with: 100 µM verapamil): 25.8 µM
O=C(O)C(F)(F)C(F)(F)C(F)(F)C(F)(F)C(F)(F)F  IC50 (CYP2E1; enzyme activity, inhibitor; Supersomes, together with: 7-MFC substrate): > 100 µM
Clc1ccccc1-c1c(Cl)c(Cl)c(Cl)c(Cl)c1Cl  IC50 (Abcb1a N83Q/N87Q/N90Q; ATPase activity, inhibitor; together with: 100 µM verapamil): 6.1 µM
O=S(=O)(O)C(F)(F)C(F)(F)C(F)(F)C(F)(F)F  IC50 (CYP2B6; enzyme activity, inhibitor; Supersomes; together with: 7-ethoxy-4-trifluoromethylcoumarin substrate): > 100 µM
Brc1ccc(Oc2cc(Br)ccc2Br)c(Br)c1  IC50 (Abcb1a N83Q/N87Q/N90Q; ATPase activity, inhibitor; together with: 100 µM verapamil): 35.6 µM
Clc1ccc(-c2cc(Cl)c(Cl)c(Cl)c2)cc1  IC50 (Ahr; binding, competitor; in vitro expressed receptor, together with: [3H]TCDD): 0.112 µM
C#CCOc1ccccc1-c1cc(=O)c2ccccc2o1  IC50 (CYP1A1; enzyme activity, inhibitor, fluorescence): 0.56 µM
Cn1cc(C2=C(c3coc4ccc(F)cc34)C(=O)NC2=O)c2cc3c(cc21)OCO3  IC50 (KCNH2; ion current, inhibitor, thallium flux; U2OS overexpressing hERG): 3.8 µM
Clc1ccc(-c2cc(Cl)c(Cl)c(Cl)c2Cl)cc1Cl  IC50 (Ahr; binding, competitor; in vitro expressed receptor, together with: [3H]TCDD): 1 µM
O=C(Cc1ccccc1Nc1c(Cl)cccc1Cl)Oc1ccc(-c2cc(=S)ss2)cc1  IC50 (CYP1B1; enzyme activity, inhibitor, fluorescence): 2.4 µM
C=C(C[C@@]12C[C@@H](C)C[C@@H](O1)[C@H]1O[C@]3(C[C@H]1O2)NC[C@H](C)C[C@@H]3C)[C@H]1O[C@@](O)([C@@H](O)[C@@H]2C[C@H]3O[C@@]4(CC[C@]5(CC(C)=C[C@@H](/C=C/CCC(=O)O)O5)O4)[C@H](C)C[C@H]3O2)[C@H](C)C[C@@H]1C  IC50 (KCNH2; ion current, inhibitor, thallium flux; HEK293 expressing hERG; 15 min): 5.1 µM
Clc1cc(Cl)c(-c2cc(Cl)c(Cl)cc2Cl)cc1Cl  IC50 (Abcb1a N83Q/N87Q/N90Q; ATPase activity, inhibitor; together with: 100 µM verapamil): 21.8 µM
C#CCOc1ccc(-c2cc(=O)c3ccccc3o2)cc1  IC50 (CYP1A2; enzyme activity, inhibitor): 1.27 µM
Brc1c(Br)c(Br)c(Oc2c(Br)c(Br)c(Br)c(Br)c2Br)c(Br)c1Br  IC50 (Abcb1a N83Q/N87Q/N90Q; ATPase activity, inhibitor; together with: 100 µM verapamil): 6.5 µM
C=C(C)[C@@H]1CCC(CO)=C[C@H]1c1c(O)cc(CCCCC)cc1O  IC50 (CYP2B6; nicotine C-oxidation to cotinine, inhibitor; recombinant enzyme microsomes; together with: nicotine 500 µM): 1.2 ± 0.44 µM
C#CCOc1ccc2c(=O)cc(-c3ccccc3)oc2c1  IC50 (CYP1A1; enzyme activity, inhibitor, fluorescence): 0.51 µM
Clc1ccc(-c2cc(Cl)c(Cl)c(Cl)c2)cc1Cl  IC50 (Ahr; binding, competitor; in vitro expressed receptor, together with: [3H]TCDD): 0.0126 µM
O=S(=O)(O)C(F)(F)C(F)(F)C(F)(F)C(F)(F)C(F)(F)C(F)(F)C(F)(F)C(F)(F)F  IC50 (CYP2E1; enzyme activity, inhibitor; Supersomes, together with: 7-MFC substrate): > 100 µM

Some of these lines once more:
C#CCOc1cccc2oc(-c3ccccc3)cc(=O)c12  IC50 (CYP1A2; enzyme activity, inhibitor): 0.38 µM
Clc1cc(Cl)c(Cl)c(-c2c(Cl)cccc2Cl)c1Cl  IC50 (Abcb1a N83Q/N87Q/N90Q; ATPase activity, inhibitor; together with: 100 µM verapamil): 22 µM
